Published values collected from several papers.
Each line is one published result; not all experiments were run side by side. pEC50, pIC50: −log10 of the molar value. Converted amounts (≈) assume the structure as drawn.
Sialidase-4: Sialidase-4 (Homo sapiens, UniProt Q8WWR8)
PFF0160c: Dihydroorotate dehydrogenase (quinone), mitochondrial (PFF0160c, Plasmodium falciparum, UniProt Q08210)
HLA class I histocompatibility antigen, B alpha chain: HLA class I histocompatibility antigen, B alpha chain (Homo sapiens, UniProt P01889)
KCNH2: Voltage-gated inwardly rectifying potassium channel KCNH2 (KCNH2, Homo sapiens, UniProt Q12809)
Sialidase-3: Sialidase-3 (Homo sapiens, UniProt Q9UQ49)
PFF0160c E182D: Dihydroorotate dehydrogenase (quinone), mitochondrial (PFF0160c, Plasmodium falciparum, UniProt Q08210, E182D)

Compound	tested on	test	test system	conditions	quantity	value
CC(C)CCN[C@H]1[C@H]([C@H](O)[C@H](O)CO)OC(C(=O)O)=C[C@@H]1O	Sialidase-4	enzyme activity, inhibitor	–	–	pIC50	3.68
COC(=O)c1cc(-c2cccc(NC(=S)Nc3ccc(F)c(Cl)c3)c2)on1	Mycolicibacterium fortuitum	microbial growth, broth dilution	ATCC6841	48 h	MIC	32 µg/mL (≈ 78.8 µM)
CCn1cc(C2CC2)c2c([C@H](N)c3ccc(C(F)(F)F)nc3)n(C)nc2c1=O	PFF0160c	enzyme activity, inhibitor, absorbance	–	–	pIC50	6.52 to 6.70
N.N.[Cl][Pt][Cl]	JeKo-1	cell growth or viability, ATP luminescence	–	10 µM, 72 h	inhibition	100%
Nc1ncc(-c2nc(N3CCOCC3)nc(N3CCOCC3)n2)c(C(F)F)n1	CDKL2 (Homo sapiens, UniProt Q92772)	binding, competition with immobilised ligand	–	10 µM	remaining binding	99%
COC(=O)c1cc(-c2cccc(NC(=S)Nc3cccc(Cl)c3)c2)on1	Klebsiella pneumoniae	microbial growth, broth dilution	BAA1705	–	MIC	> 64 µg/mL
O=C(/C=C/c1ccc(OC(=O)N2CCCC2)cc1)NC1CCN(Cc2ccccc2)CC1	Cholinesterase (BCHE, Equus caballus, UniProt P81908)	enzyme activity, inhibitor, Ellman	–	–	pIC50	4.69
CC(C)C[C@H](NC(=O)[C@@H](N)CCCCN)C(=O)N[C@@H](Cc1ccccc1)C(=O)N[C@@H](CO)C(=O)N[C@@H](CCCNC(=N)N)C(=O)N1CCC[C@H]1C(=O)N[C@@H](CC(C)C)C(=O)N[C@H](C(=O)N[C@@H](Cc1ccccc1)C(=O)O)[C@@H](C)O	HLA class I histocompatibility antigen, B alpha chain	cell-free assay	–	–	pIC50	4.75
CCOC(=O)c1ccc(OC(=O)CCCCCN=C(N)N)cc1	Kallikrein-5 (Homo sapiens, UniProt Q9Y337)	enzyme activity, inhibitor	–	–	pIC50	5.08
CCN(C)C(=O)Oc1ccc(CCC(=O)N2CCC(Cc3ccccc3)CC2)cc1OC	Cholinesterase (BCHE, Homo sapiens, UniProt P06276)	enzyme activity, inhibitor, Ellman	–	–	pIC50	5.20
COc1cc(CCNC(C)c2ccccc2O)c(OC)cc1C#N (stereo not shown)	HTR2C (Homo sapiens, UniProt P28335)	G protein activation, agonist, BRET	–	–	pEC50	6.80
C[C@]12CC[C@H]3[C@@H](CC=C4CC(O)CC[C@@]43CO)[C@@H]1CCC2O (stereo partly shown)	–	–	rat, plasma	intraperitoneal, 10 mg/kg	bioavailability	66%
Cn1nc2c(=O)n(C3CC3)ccc2c1Cc1ccc(C(F)(F)F)c(C#N)c1	PFF0160c	enzyme activity, inhibitor	–	–	pIC50	6.90
CN1C(=O)Cc2ccc(F)c(CNCCCC3CN(c4ccc5c(n4)NC(=O)CO5)C(=O)O3)c21 (stereo not shown)	KCNH2	ion current, inhibitor, patch clamp	–	2 min, pH 7.4	pIC50	5.05
CC(NC(=O)c1ccc(-n2cnc3ccccc32)cc1)c1ccc(S(N)(=O)=O)cc1 (stereo not shown)	PFF0160c	enzyme activity, inhibitor, absorbance	–	–	pIC50	5.13
Cn1nc2c(=O)n(C3CC3)ccc2c1[C@](O)(c1ccc(F)c(Cl)c1)C(F)(F)F	PFF0160c	enzyme activity, inhibitor	–	–	pIC50	7.90
O=C(O)C1=C[C@H](O)[C@@H](n2cc(-c3ccc(-c4ccccc4)cc3)nn2)[C@H]([C@H](O)[C@H](O)CO)O1	Sialidase-3	enzyme activity, inhibitor	–	–	pIC50	< 3.30
CCN(CC)C(=O)Oc1ccc(/C=C/C(=O)NC2CCN(Cc3ccccc3)CC2)cc1OC	Cholinesterase (BCHE, Equus caballus, UniProt P81908)	enzyme activity, inhibitor, Ellman	–	–	pIC50	5.48
CC(c1ccc(OC(F)(F)F)cc1)c1nn2c(-c3cccs3)nnc2s1 (stereo not shown)	PFF0160c	enzyme activity, inhibitor, absorbance	–	–	pIC50	5.84
O=C(O)C1=C[C@H](O)[C@@H](NCc2ccc(-c3ccccc3)cc2)[C@H]([C@H](O)[C@H](O)CO)O1	Sialidase-3	enzyme activity, inhibitor	–	–	pIC50	< 3.30

Compound	tested on	test	test system	conditions	quantity	value
COc1cnc(OC)n2nc(NS(=O)(=O)c3c(OCC(F)F)cccc3C(F)(F)F)nc12	HaCaT	cell growth or viability, CCK-8	–	1.56 µM, 72 h	inhibition	0.43%
CC(C)C[C@H](NC(=O)[C@H](CCC(=O)O)NC(=O)[C@H](CC(C)C)NC(=O)[C@@H]1CCCN1C(=O)[C@H](CCCCN)NC(=O)[C@H](CO)NC(=O)[C@H](Cc1ccc(O)cc1)NC(=O)[C@@H](NC(=O)[C@@H](N)Cc1ccc(O)cc1)[C@@H](C)O)C(=O)O	HLA class I histocompatibility antigen, B alpha chain	cell-free assay	–	–	pIC50	5.63
Cn1c(=O)ccc2ccc(F)c(CCNC[C@H]3CN(c4ccc5c(n4)NC(=O)CO5)C(=O)O3)c21	gyrA (Escherichia coli K-12, UniProt P0AES4)	enzyme activity, inhibitor	–	–	pIC50	7.47
Cn1nc2c(=O)n(C)ccc2c1Cc1ccc(C(F)(F)F)nc1	PFF0160c	enzyme activity, inhibitor	–	–	pIC50	5.38
COc1ccccc1Cn1ccnc1SCC(=O)Nc1cc(C(F)(F)F)ccc1Cl	PFF0160c E182D	enzyme activity, inhibitor, absorbance	–	–	pIC50	6.51
CC(C)CCC(=O)N[C@H]1[C@H]([C@H](O)[C@H](O)CO)OC(C(=O)O)=C[C@@H]1O	Sialidase-3	enzyme activity, inhibitor	–	–	pIC50	< 3.30
O=C(CN1CCN(C(=O)c2ccco2)CC1)Nc1ccccc1Br	PFF0160c	enzyme activity, inhibitor, absorbance	–	–	pIC50	5.79
CCCCNC(=O)N[C@H]1[C@H]([C@H](O)[C@H](O)CO)OC(C(=O)O)=C[C@@H]1O	Sialidase-4	enzyme activity, inhibitor	–	–	pIC50	< 3.30
CCOC(=O)c1[nH]nc(Cc2ccc(C(F)(F)F)cc2)c1C	PFF0160c	enzyme activity, inhibitor	–	–	pIC50	< 4.52
[2H]c1c([2H])c([C@]2([2H])CCCN2C(=O)C(C)(C)Oc2ccc3cn[nH]c3c2)c([2H])c([2H])c1C([2H])([2H])[2H]	STK38L (Homo sapiens, UniProt Q9Y2H1)	binding, competition with immobilised ligand	–	1 µM	remaining binding	94%
COc1ncccc1-c1cnn2ccc(N3CCN(C(=O)OC(C)C)CC3)nc12	STK32A (Homo sapiens, UniProt Q8WU08)	binding, competition with immobilised ligand	–	1 µM	remaining binding	94%
CC[C@](O)(c1cnc(C(F)(F)F)c(Cl)c1)c1c2ccn(C3CC3)c(=O)c2nn1C	PFF0160c	enzyme activity, inhibitor	–	–	pIC50	4.90
Cc1nc2c(=O)sc3ccccc3c2n1Cc1ccccc1	PFF0160c E182D	enzyme activity, inhibitor, absorbance	–	–	pIC50	7.01
Cc1nn(C)cc1-c1nc2c(N3CCN(Cc4ccc(Cl)cc4)CC3)c(Cl)cnc2[nH]1	STK32C (Homo sapiens, UniProt Q86UX6)	binding, competition with immobilised ligand	–	1 µM	remaining binding	100%
CCCN(Cc1nnc(-c2cccs2)o1)C(=O)C1COc2ccccc2O1 (stereo not shown)	PFF0160c E182D	enzyme activity, inhibitor, absorbance	–	–	pIC50	5.67
CC(C)C[C@H]1C(=O)N2CCC[C@H]2[C@]2(O)O[C@](NC(=O)[C@@H]3C=C4c5cccc6[nH]c(Br)c(c56)C[C@H]4[N+](C)(C)C3)(C(C)C)C(=O)N12	KCNH2	ion current, inhibitor, patch clamp	CHO-KI	pH 7.4	pIC50	5.13
Cc1sc(CNCCCNc2cc(=O)c3ccccc3[nH]2)c(I)c1C	PFF0160c	enzyme activity, inhibitor, absorbance	–	–	pIC50	5.75
CC[C@H](C)[C@H](NC(=O)[C@@H](N)Cc1c[nH]cn1)C(=O)N[C@@H](Cc1ccccc1)C(=O)N[C@@H](CO)C(=O)N[C@@H](CCCNC(=N)N)C(=O)N1CCC[C@H]1C(=O)N[C@@H](CCSC)C(=O)N[C@H](C(=O)N[C@@H](Cc1ccccc1)C(=O)O)[C@@H](C)O	HLA class I histocompatibility antigen, B alpha chain	cell-free assay	–	–	pIC50	5.09
COc1cc(Nc2ccnc3cc(-c4ccncc4)ccc23)cc(OC)c1OC	PFF0160c	enzyme activity, inhibitor, absorbance	–	–	pIC50	5.72
CC(C)C[C@H](NC(=O)OCc1ccccc1)C(=O)N[C@@H](CC1CCNC1=O)C(O)S(=O)(=O)O (stereo partly shown)	CAPN1 (Homo sapiens, UniProt P07384)	enzyme activity, inhibitor	–	–	pIC50	7.05
